{"data": "Published values pooled from the literature", "note": "Compare with care: the assays were run in different laboratories. ± marks the error that the study gave."}
{"SMILES": "Cc1cccc(C)c1OCC(=O)N[C@@H](Cc1ccccc1)[C@H](C[C@H](Cc1ccccc1)NC(=O)[C@H](C(C)C)N1CCCNC1=O)OC(=O)[C@@H](N)CC(C)C", "system": "DPBS", "setting": "50 µM, pH 4, 37 °C", "half-life": "29.6 ± 0.4 h"}
{"SMILES": "O=C(Nc1ccc(-c2noc(C3CC3)n2)c(Cl)c1)c1cccs1", "test": "plasma stability", "system": "human plasma", "setting": "5 µM, 37 °C", "half-life": "> 2 h"}
{"SMILES": "CC(C)[C@H](NC(=O)CNC(=O)[C@H](CCC(N)=O)NC(=O)[C@H](C)N)C(=O)O", "system": "healthy volunteers, LPS endotoxaemia, plasma", "setting": "intravenous, 90 mg/kg/h, 2 h infusion, geometric mean, together with: LPS 2 ng/kg", "half-life": "0.17 h"}
{"SMILES": "Cc1cc(-c2ccccc2)c2ccc3c(-c4ccccc4)cc(C)nc3c2n1.[Cl-].[Cl-].[Ru+2].c1ccc(-c2ccccn2)nc1.c1ccc(-c2ccccn2)nc1", "system": "water", "setting": "blue light 100 mW/cm^2 460 nm", "half-life": "~0.0333 h"}
{"SMILES": "CCC(C)C(N)C(=O)OC(C)OC(=O)C1=CC(N=C(N)N)C(NC(C)=O)C(C(O)C(O)CO)O1 (mixture of isomers)", "system": "phosphate buffer", "setting": "pH 7.4, 37 °C, chemical hydrolysis", "half-life": "0.8 ± 0.188 h"}
{"SMILES": "[NH2][Pt]1([NH2])([Cl])([O]C(=O)C(F)(F)F)[O]C(=O)C2(CC(=O)C2)C(=O)[O]1", "test": "HPLC", "system": "MeOH/PBS 1:9 v/v", "setting": "pH 7.4, 37 °C, PBS 7.87 mM", "half-life": "0.833 to 1 h"}
{"SMILES": "Cn1cc(C(N)=O)c(NC2C3CC4CC2CC(OS(=O)(=O)O)(C4)C3)c2ccnc1-2 (stereo not drawn)", "system": "Japanese adults, normal hepatic function, plasma", "setting": "oral, 150 mg single dose", "half-life": "12.5 h"}
{"SMILES": "CC(C)C[C@H](NC(=O)[C@H](CO)NC(=O)[C@H](CO)NC(=O)[C@H](CC(C)C)NC(=O)[C@@H](NC(=O)[C@@H]1CCCN1C(=O)[C@H](Cc1c[nH]c2ccccc12)NC(=O)[C@H](Cc1ccc(O)cc1)NC(=O)[C@@H]1CCCN1C(=O)[C@H](CC(C)C)NC(=O)[C@H](Cc1ccc(O)cc1)NC(=O)[C@@H](N)CCCCN)C(C)C)C(=O)O", "test": "ELISA", "system": "PC-3 conditioned medium", "setting": "3000 µM, 37 °C, 10% FBS", "half-life": "~7 h"}
{"SMILES": "Nc1nc2c(ncn2COCCOC(=O)CCC(=O)OC[C@H](N)C(=O)O)c(=O)[nH]1", "system": "DPBS", "setting": "pH 6.0, 34 °C, chemical hydrolysis", "half-life": "1160 ± 369 h"}
{"SMILES": "COc1cc(C)c(Cc2ccc(O)cc2)cc1[C@@H]1S[C@H](CO)[C@@H](O)[C@H](O)[C@H]1O", "system": "Japanese T2DM patients, plasma", "setting": "5 mg luseogliflozin, day 1, once daily", "half-life": "19.5 ± 4.41 h"}
{"SMILES": "CC(C)C[C@H](NC(=O)[C@H](CO)NC(=O)[C@H](CO)NC(=O)[C@H](CC(C)C)NC(=O)[C@@H](NC(=O)[C@@H]1CCCN1C(=O)[C@H](Cc1c[nH]c2ccccc12)NC(=O)[C@H](Cc1ccc(O)cc1)NC(=O)[C@@H]1CCCN1C(=O)[C@H](CC(C)C)NC(=O)[C@H](Cc1ccc(O)cc1)NC(=O)[C@@H](N)CCCCN)C(C)C)C(=O)O", "test": "plasma stability", "system": "rat plasma", "half-life": "~0.167 h"}
{"SMILES": "O=C(CS(=O)(=O)Cc1ccco1)C12CC3CC(CC(C3)C1)C2", "test": "metabolic stability", "system": "human liver microsomes", "half-life": "> 4 h"}
{"SMILES": "CCC(CC)O[C@@H]1C=C(C(=O)OC(OC(=O)[C@@H](N)C(C)C)C(C)C)C[C@H](NC(=N)N)[C@H]1NC(C)=O (single isomer, unassigned)", "system": "acetate buffer with pancreatin", "setting": "pH 5.5", "half-life": "stable"}
{"SMILES": "C#CCOCCOCCOCCOCCn1cc(C(ONC(=O)/C=C/C(C)=C/C2(C)Oc3cc(N(C)C)ccc3C2=O)(c2ccccc2)c2ccccc2)nn1 (stereo not drawn)", "test": "HPLC", "system": "aqueous buffer", "setting": "pH 7.3", "half-life": "stable"}
{"SMILES": "CC(=O)N[C@H]1CSSC[C@@H](C(N)=O)NC(=O)[C@H](C(C)C)NC(=O)[C@H](C)NC(=O)[C@H](Cc2c[nH]cn2)NC(=O)[C@H](CO)NC1=O", "system": "rat plasma", "setting": "37 °C, 0.6% DMSO", "half-life": "12.9 h"}
{"note": "For quick reference, copied from above:"}
{"SMILES": "Cc1cc(-c2ccccc2)c2ccc3c(-c4ccccc4)cc(C)nc3c2n1.[Cl-].[Cl-].[Ru+2].c1ccc(-c2ccccn2)nc1.c1ccc(-c2ccccn2)nc1", "system": "water", "setting": "blue light 100 mW/cm^2 460 nm", "half-life": "~0.0333 h"}
